{"data": "Published values gathered from unrelated publications", "4'-phosphopantetheinyl transferase PptT": "4'-phosphopantetheinyl transferase PptT (Mycobacterium tuberculosis, UniProt O33336)", "note": "Lines come from different studies, so protocols differ. Numbers after ± are the reported error.", "sequence of UniProt P21554 (whole entry, unmodified, looked up)": "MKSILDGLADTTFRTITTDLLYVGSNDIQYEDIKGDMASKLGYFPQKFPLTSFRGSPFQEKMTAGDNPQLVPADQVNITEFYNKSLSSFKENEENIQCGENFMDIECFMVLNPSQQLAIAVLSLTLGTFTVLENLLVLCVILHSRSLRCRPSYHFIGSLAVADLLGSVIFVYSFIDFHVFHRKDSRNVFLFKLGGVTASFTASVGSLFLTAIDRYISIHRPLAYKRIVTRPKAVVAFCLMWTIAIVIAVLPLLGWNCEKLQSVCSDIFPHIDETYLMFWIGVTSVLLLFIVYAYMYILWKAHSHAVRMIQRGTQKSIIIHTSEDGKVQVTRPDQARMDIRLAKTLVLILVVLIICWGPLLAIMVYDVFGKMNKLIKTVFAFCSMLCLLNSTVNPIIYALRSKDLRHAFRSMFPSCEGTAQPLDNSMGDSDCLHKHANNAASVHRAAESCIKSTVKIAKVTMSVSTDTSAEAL", "sequence of UniProt O33336 (whole entry, looked up)": "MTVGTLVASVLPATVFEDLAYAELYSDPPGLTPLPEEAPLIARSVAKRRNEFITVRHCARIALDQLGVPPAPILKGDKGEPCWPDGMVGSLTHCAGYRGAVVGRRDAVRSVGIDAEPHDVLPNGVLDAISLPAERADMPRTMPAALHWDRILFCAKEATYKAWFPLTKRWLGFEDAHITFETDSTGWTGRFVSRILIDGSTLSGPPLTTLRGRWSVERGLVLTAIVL", "sequence of UniProt Q96SB4 (whole entry, looked up)": "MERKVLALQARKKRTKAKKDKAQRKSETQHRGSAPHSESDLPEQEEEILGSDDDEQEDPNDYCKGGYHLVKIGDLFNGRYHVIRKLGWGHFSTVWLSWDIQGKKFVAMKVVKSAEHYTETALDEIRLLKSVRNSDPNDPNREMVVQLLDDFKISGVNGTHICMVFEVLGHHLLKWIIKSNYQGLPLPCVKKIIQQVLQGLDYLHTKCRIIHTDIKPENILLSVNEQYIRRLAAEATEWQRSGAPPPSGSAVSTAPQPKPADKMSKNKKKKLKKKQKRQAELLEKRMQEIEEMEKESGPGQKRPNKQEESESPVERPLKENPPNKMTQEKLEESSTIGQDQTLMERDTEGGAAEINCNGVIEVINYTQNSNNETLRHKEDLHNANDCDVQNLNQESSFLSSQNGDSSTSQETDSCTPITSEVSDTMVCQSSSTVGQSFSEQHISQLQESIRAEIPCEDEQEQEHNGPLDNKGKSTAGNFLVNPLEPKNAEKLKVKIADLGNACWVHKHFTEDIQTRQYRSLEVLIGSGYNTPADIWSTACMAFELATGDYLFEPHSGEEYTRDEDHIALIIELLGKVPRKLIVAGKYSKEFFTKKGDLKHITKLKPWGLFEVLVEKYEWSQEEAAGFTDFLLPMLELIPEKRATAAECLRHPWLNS", "sequence of UniProt P9WG47 (whole entry, looked up)": "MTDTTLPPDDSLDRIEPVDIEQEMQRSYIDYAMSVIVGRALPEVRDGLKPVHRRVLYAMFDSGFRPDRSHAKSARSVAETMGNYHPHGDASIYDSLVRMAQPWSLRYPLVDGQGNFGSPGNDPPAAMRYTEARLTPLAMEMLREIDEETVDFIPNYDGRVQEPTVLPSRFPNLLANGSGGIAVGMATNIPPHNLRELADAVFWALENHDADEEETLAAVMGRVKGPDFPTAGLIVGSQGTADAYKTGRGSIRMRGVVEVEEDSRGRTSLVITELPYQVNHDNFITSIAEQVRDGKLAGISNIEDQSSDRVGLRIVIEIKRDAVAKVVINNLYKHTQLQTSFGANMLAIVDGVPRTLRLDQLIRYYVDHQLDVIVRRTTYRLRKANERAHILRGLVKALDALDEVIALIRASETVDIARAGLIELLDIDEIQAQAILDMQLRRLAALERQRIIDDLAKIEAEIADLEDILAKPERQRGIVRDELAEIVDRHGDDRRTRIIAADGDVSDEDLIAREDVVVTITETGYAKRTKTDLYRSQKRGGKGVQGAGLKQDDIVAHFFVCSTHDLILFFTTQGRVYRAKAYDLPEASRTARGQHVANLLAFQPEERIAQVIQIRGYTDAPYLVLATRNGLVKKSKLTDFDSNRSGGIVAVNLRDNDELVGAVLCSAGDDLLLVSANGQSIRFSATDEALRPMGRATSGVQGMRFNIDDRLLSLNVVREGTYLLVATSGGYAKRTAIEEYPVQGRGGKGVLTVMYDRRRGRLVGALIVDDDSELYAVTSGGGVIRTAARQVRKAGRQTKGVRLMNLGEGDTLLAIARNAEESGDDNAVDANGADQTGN", "sequence of UniProt P51955 (whole entry, looked up)": "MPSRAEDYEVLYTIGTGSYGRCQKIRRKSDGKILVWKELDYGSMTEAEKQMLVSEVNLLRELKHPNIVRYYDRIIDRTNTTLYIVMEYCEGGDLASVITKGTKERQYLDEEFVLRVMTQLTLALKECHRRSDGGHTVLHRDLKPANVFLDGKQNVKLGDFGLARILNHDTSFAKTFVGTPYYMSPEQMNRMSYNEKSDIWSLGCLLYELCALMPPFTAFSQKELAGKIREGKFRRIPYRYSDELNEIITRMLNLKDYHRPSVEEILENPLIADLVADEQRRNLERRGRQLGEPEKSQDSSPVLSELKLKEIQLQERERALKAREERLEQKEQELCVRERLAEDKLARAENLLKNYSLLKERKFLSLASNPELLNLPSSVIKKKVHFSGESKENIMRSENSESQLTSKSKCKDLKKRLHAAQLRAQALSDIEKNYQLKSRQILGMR", "sequence of UniProt P41143 (whole entry, unmodified, looked up)": "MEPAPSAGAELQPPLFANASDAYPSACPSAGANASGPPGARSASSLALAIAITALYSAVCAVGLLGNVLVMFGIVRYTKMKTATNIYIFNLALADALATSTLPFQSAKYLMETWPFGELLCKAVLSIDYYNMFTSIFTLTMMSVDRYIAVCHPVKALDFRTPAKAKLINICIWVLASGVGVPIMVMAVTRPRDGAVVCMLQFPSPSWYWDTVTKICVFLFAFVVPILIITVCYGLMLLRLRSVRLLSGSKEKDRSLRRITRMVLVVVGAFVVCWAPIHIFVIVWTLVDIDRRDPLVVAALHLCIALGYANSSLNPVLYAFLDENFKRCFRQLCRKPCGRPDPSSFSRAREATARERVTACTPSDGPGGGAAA", "sequence of UniProt Q8TBX8 (whole entry, looked up)": "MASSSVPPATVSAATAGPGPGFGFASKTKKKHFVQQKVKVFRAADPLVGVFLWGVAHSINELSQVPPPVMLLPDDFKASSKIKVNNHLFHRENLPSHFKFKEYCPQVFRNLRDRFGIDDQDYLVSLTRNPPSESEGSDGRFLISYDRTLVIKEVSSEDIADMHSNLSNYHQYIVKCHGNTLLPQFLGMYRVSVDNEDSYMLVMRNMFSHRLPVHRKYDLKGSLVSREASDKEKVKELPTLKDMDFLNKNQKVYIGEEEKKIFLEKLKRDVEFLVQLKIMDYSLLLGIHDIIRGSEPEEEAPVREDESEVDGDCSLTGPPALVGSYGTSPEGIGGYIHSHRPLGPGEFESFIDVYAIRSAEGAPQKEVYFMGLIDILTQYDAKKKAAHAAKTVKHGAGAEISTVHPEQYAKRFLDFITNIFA", "sequence of UniProt O60911 (whole entry, looked up)": "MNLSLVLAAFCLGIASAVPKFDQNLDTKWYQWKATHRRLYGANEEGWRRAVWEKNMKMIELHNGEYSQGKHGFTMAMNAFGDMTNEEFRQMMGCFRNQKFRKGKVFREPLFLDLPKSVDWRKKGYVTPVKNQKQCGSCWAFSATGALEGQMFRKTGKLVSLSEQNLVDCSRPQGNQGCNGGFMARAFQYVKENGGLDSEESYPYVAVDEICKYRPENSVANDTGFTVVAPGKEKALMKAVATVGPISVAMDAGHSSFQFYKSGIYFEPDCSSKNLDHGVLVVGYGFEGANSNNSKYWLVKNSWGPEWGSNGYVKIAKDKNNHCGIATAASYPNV", "sequence of UniProt Q13188 (whole entry, looked up)": "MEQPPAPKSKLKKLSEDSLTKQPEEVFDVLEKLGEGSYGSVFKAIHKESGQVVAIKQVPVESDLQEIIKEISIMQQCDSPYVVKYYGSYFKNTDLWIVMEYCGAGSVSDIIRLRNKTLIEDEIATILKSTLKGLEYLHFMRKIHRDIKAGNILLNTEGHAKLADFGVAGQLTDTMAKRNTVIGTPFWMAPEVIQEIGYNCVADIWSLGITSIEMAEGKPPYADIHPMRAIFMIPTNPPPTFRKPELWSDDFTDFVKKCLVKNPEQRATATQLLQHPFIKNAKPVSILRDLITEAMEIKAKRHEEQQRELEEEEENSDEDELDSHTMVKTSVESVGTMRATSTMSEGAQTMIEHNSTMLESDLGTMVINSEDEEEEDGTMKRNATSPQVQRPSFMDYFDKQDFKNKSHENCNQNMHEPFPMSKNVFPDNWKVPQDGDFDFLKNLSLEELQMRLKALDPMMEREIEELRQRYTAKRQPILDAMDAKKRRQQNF"}
{"Compound": "CC[C@H](C)[C@H](NC(=O)[C@@H]1CCCN1C(=O)[C@H](C)NC(=O)CNC(=O)[C@@H]1CCCN1C(=O)[C@H](CCC(=O)O)NC(=O)CN)C(=O)N[C@@H](CC(=O)O)C(=O)N[C@@H](Cc1ccc(O)cc1)C(=O)N[C@@H](CC(=O)O)C(=O)N[C@@H](CCC(=O)O)C(=O)N[C@@H](Cc1ccc(O)cc1)C(=O)NCC(=O)N[C@@H](CC(=O)O)C(=O)N[C@@H](CO)C(=O)N[C@@H](CO)C(=O)N[C@@H](CCC(=O)O)C(=O)N[C@@H](CCC(=O)O)C(=O)N[C@H](C(=O)NCC(=O)NCC(=O)N[C@@H](C)C(=O)N[C@@H](CCC(=O)O)C(=O)N[C@H](C(=O)N[C@@H](C)C(=O)N[C@@H](CCC(N)=O)C(=O)N1CCC[C@H]1C(=O)N[C@@H](CCCCN)C(=O)N[C@@H](CC(C)C)C(=O)N[C@@H](Cc1ccc(O)cc1)C(=O)N[C@@H](CCC(N)=O)C(=O)N[C@@H](CCCNC(=N)N)C(=O)NCC(=O)N[C@@H](CCC(=O)O)C(=O)NCC(=O)NCC(=O)N[C@@H](CC(N)=O)C(=O)NCC(=O)N[C@@H](CCSC)C(=O)N[C@@H](CCC(=O)O)C(=O)N1CCC[C@H]1C(=O)N[C@H](C(=O)N1CCC[C@H]1C(=O)N[C@@H](CCC(=O)O)C(=O)N[C@@H](CC(=O)O)C(=O)N[C@@H](Cc1ccc(O)cc1)C(=O)N[C@@H](CC(C)C)C(=O)N[C@@H](CCC(N)=O)C(=O)O)[C@@H](C)CC)C(C)C)C(C)C", "tested on": "Prothrombin, gamma-thrombin (F2, Homo sapiens, UniProt P00734)", "setting": "pH 8", "quantity": "Ki", "value": "360 ± 21 nM"}
{"Compound": "O=C1NC(=O)c2c1c1cc(F)c[n+]3c1c1c2c2cc(O)ccc2[n]1[Ru-4]312([N]=C=S)[S+]3CC[S+]1CC[S+]2CC3 (stereo not drawn)", "tested on": "SRPK1 (Homo sapiens, UniProt Q96SB4)", "test": "enzyme activity", "setting": "100 nM, human enzyme, together with: 10 µM ATP", "scale": "relative to: untreated", "quantity": "remaining activity", "value": "38%"}
{"Compound": "CC(C)(C)C(=O)OCOP(=O)(OCOC(=O)C(C)(C)C)C1CCCN(O)C1=O (stereo not drawn)", "tested on": "NCI-H23", "quantity": "log LC50", "value": "> -4 log M"}
{"Compound": "C#CCN(Cc1ccc2nc(C)[nH]c(=O)c2c1)c1ccc(C(=O)N[C@H](CCC(=O)OC)C(=O)OC)cc1", "tested on": "4'-phosphopantetheinyl transferase PptT", "test": "enzyme activity, inhibitor, fluorescence polarization", "setting": "enzyme 100 nM", "quantity": "IC50", "value": "7830 nM"}
{"Compound": "CCCCCn1cc(C(=O)c2cccc3ccccc23)c2ccccc21", "tested on": "CNR1 (Homo sapiens, UniProt P21554, H178A)", "test": "G protein activation, agonist, BRET", "quantity": "EC50", "value": "871 nM"}
{"Compound": "Cc1cc(C(=O)Nc2nc3cccc(C)c3n2[C@H]2CCCCN(C(=O)/C=C/CN(C)C)C2)ccn1", "tested on": "Trypanosoma brucei", "system": "STIB795, mouse acute HAT model", "setting": "oral, 25 mg/kg once daily for 4 days, day 14", "scale": "relative to: mice", "quantity": "survival", "value": "83.3%"}
{"Compound": "COc1ccccc1C(C[N+](=O)[O-])c1c(-c2ccccc2)[nH]c2ccccc12 (stereo not drawn)", "tested on": "CNR1 (Homo sapiens, UniProt P21554, F191A)", "test": "G protein activation, agonist, BRET", "quantity": "EC50", "value": "1140 nM"}
{"Compound": "CC(C)CC(C(=O)N1CC2(CC1C#N)C(=O)Nc1ccccc12)N(C)C(=O)c1cc2c(F)cc(F)c(F)c2[nH]1 (stereo not drawn)", "tested on": "Cathepsin L2 (CTSV, Homo sapiens, UniProt O60911)", "test": "enzyme activity, inhibitor", "quantity": "IC50", "value": "> 100000 nM"}
{"Compound": "O=C1NC2(CC2)COc2ncc(F)cc2[C@H]2COCCN2c2ccn3ncc1c3n2", "system": "Sprague-Dawley rat, male, serum", "setting": "oral, 5 mg/kg/day, end of treatment, 4-week subacute toxicity", "quantity": "serum total bilirubin", "value": "0.9 ± 0.2 µmol/L"}
{"Compound": "CCN(Cc1ccc2nc(C)[nH]c(=O)c2c1)c1ccc(C(=O)NC(C(=O)O)C(C)C)cc1 (stereo not drawn)", "tested on": "4'-phosphopantetheinyl transferase PptT", "test": "enzyme activity, inhibitor, fluorescence polarization", "setting": "enzyme 100 nM", "quantity": "IC50", "value": "2900 nM"}
{"Compound": "CCCCCn1cc(C(=O)c2ccc3ccccc3c2)c2ccccc21", "tested on": "CNR1 (Homo sapiens, UniProt P21554, F174A)", "test": "G protein activation, agonist, BRET", "quantity": "EC50", "value": "692 nM"}
{"Compound": "CC(C)C[C@H](NC(=O)[C@H](C)NC(=O)[C@@H](N)CCC(N)=O)C(=O)N[C@@H](Cc1ccccc1)C(=O)N[C@@H](CC(=O)O)C(=O)N[C@H](C(=O)N[C@H]1CCSSC[C@@H](C(=O)N[C@@H](CCCCN)C(=O)NCC(=O)N[C@@H](CO)C(=O)N[C@@H](CCCCNC(=O)CCCC[C@@H]2SC[C@@H]3NC(=O)N[C@@H]32)C(N)=O)NC(=O)[C@H](CC(N)=O)NC(=O)[C@@H]2CCCN2C(=O)[C@H](Cc2c[nH]cn2)NC(=O)[C@H](CO)NC(=O)[C@H](Cc2ccc(O)cc2)NC(=O)[C@H](CC(=O)O)NC1=O)C(C)C", "tested on": "anti-HA antibody 12CA5 (mouse)", "test": "biolayer interferometry", "setting": "30 °C", "quantity": "Kd", "value": "< 1 nM"}
{"Compound": "CC(C)[C@H]1NC(=O)C[C@H]2/C=C/CCSSC[C@@H](NC1=O)C(=O)N[C@H](Cc1cccc3ccccc13)C(=O)NCC(=O)O2", "tested on": "STK3 (Homo sapiens, UniProt Q13188)", "test": "enzyme activity, inhibitor", "setting": "10 µM", "quantity": "inhibition", "value": "-2.7%"}
{"Compound": "CN(C)[C@H]1C[C@@]23CC[C@@]4(O2)C(=CC[C@]2(C)[C@@H](c5ccc6ccncc6c5)CC[C@H]24)C=C3[C@@H](O)[C@@H]1O", "tested on": "PIP4K2C (Homo sapiens, UniProt Q8TBX8)", "test": "ATP probe labelling, inhibitor, KiNativ profiling", "setting": "0.1 µM", "quantity": "inhibition", "value": "-23.2%"}
{"Compound": "Cc1nc2ccc(CN(C)c3ccc(C(=O)NC(C(=O)O)C(C)CC(=O)O)cc3)cc2c(=O)[nH]1 (stereo not drawn)", "tested on": "4'-phosphopantetheinyl transferase PptT", "test": "enzyme activity, inhibitor, FP", "quantity": "IC50", "value": "58 nM"}
{"Compound": "COc1ccccc1-c1n[nH]c2nc(NC3CCN(C(=O)Cc4ccc(F)cc4F)CC3)ncc12", "test": "bead binding, competition bead pull-down, item: LINJ.26.0840", "system": "Leishmania donovani extract", "setting": "10 µM", "scale": "relative to: vehicle", "quantity": "relative abundance", "value": 1.13}
{"Compound": "CN(Cc1ccc2nc(CF)[nH]c(=O)c2c1)c1ccc(C(=O)NC(CCC(=O)O)C(=O)O)s1 (stereo not drawn)", "tested on": "4'-phosphopantetheinyl transferase PptT", "test": "enzyme activity, inhibitor, FP", "quantity": "IC50", "value": "75 nM"}
{"Compound": "Cc1ccc2c(C(C[N+](=O)[O-])c3cccs3)c(-c3ccccc3)[nH]c2c1 (stereo not drawn)", "tested on": "CNR1 (Homo sapiens, UniProt P21554, L387A)", "test": "G protein activation, agonist, BRET", "quantity": "EC50", "value": "100 nM"}
{"Compound": "CN(C)CC1CN(S(=O)(F)=Nc2cc(Cl)c(C(=O)N3CCO[C@@H](c4ccccc4)C3)c(Cl)c2)C1 (stereo partly drawn)", "tested on": "hemagglutinin (Influenza A virus, UniProt B4UPF7)", "test": "binding", "system": "A/Beijing/262/1995", "quantity": "Kd", "value": "30 nM"}
{"Compound": "Cc1nc2ccc(CN(C)c3sc(C(=O)NC(CCC(=O)O)C(=O)O)cc3F)cc2c(=O)[nH]1 (stereo not drawn)", "tested on": "4'-phosphopantetheinyl transferase PptT", "test": "enzyme activity, inhibitor, FP", "quantity": "IC50", "value": "69 nM"}
{"Compound": "CCN(CC)C(=O)c1ccc(C(c2cccc(O)c2)N2CC(C)N(Cc3ccccc3)CC2C)cc1 (stereo not drawn)", "tested on": "OPRD1 (Homo sapiens, UniProt P41143, A309I)", "quantity": "Ki", "value": "0.19 ± 0.01 nM"}
{"Compound": "COc1ccc2nccc(CC[C@H]3OC[C@H](NC(=O)c4ccc5c(c4)NC(=O)CO5)CO3)c2c1", "tested on": "DNA gyrase subunit A, with GyrB (Mycobacterium tuberculosis, UniProt P9WG47)", "test": "single-stranded DNA cleavage", "setting": "10 min, 37 °C, together with: gyrase 100 nM", "quantity": "EC50", "value": "1430 nM"}
{"Compound": "O=[N+]([O-])CC(c1ccco1)c1c(-c2ccccc2)[nH]c2ccccc12 (stereo not drawn)", "tested on": "CNR1 (Homo sapiens, UniProt P21554)", "test": "G protein activation, agonist, BRET", "quantity": "EC50", "value": "390 nM"}
{"Compound": "C#CCN(Cc1ccc2nc(C)[nH]c(=O)c2c1)c1ccc(C(=O)N[C@@H](CCC(=O)O)C(=O)O)cc1", "tested on": "4'-phosphopantetheinyl transferase PptT", "test": "enzyme activity, inhibitor, fluorescence polarization", "setting": "enzyme 100 nM", "quantity": "IC50", "value": "65 nM"}
{"Compound": "CCCCCn1cc(C(=O)c2cccc3c2CC(C)(C)C3)c2ccccc21", "tested on": "CNR1 (Homo sapiens, UniProt P21554, F177A)", "test": "G protein activation, agonist, BRET", "quantity": "EC50", "value": "7590 nM"}
{"Compound": "CC[C@H](C)[C@H](NC(=O)[C@H](CO)NC(=O)[C@H](Cc1ccc(O)cc1)NC(=O)[C@H](Cc1ccc(O)cc1)NC(=O)[C@H](CC(N)=O)NC(=O)CNC(=O)[C@H](CO)NC(=O)[C@H](Cc1ccc(O)cc1)NC(=O)[C@H](CO)NC(=O)[C@H](CO)NC(=O)[C@H](CC(N)=O)NC(=O)COCCOCCNC(=O)CN1CCN(CC(=O)O)CCN(CC(=O)O)CCN(CC(=O)O)CC1)C(=O)N[C@@H](CC(C)C)C(N)=O [copper-64 labelled]", "test": "dynamic PET", "system": "mouse, tamoxifen-induced PDAC, blood", "setting": "intravenous, 0.1 µg/mouse, 5.5 min", "quantity": "tumour uptake", "value": "9.65 %ID/mL"}
{"Compound": "CS(C)(=O)=Nc1ccc(-c2ccc(-c3nc4cc(O[C@@H]5CO[C@H]6[C@@H]5OC[C@H]6O)[nH]c4cc3F)cc2)cc1", "tested on": "NEK2 (Homo sapiens, UniProt P51955)", "test": "enzyme activity, inhibitor", "setting": "10 µM", "quantity": "inhibition", "value": "-5%"}
{"note": "A few entries again:"}
{"Compound": "C#CCN(Cc1ccc2nc(C)[nH]c(=O)c2c1)c1ccc(C(=O)N[C@H](CCC(=O)OC)C(=O)OC)cc1", "tested on": "4'-phosphopantetheinyl transferase PptT", "test": "enzyme activity, inhibitor, fluorescence polarization", "setting": "enzyme 100 nM", "quantity": "IC50", "value": "7830 nM"}
{"Compound": "CCCCCn1cc(C(=O)c2cccc3ccccc23)c2ccccc21", "tested on": "CNR1 (Homo sapiens, UniProt P21554, H178A)", "test": "G protein activation, agonist, BRET", "quantity": "EC50", "value": "871 nM"}
{"Compound": "Cc1cc(C(=O)Nc2nc3cccc(C)c3n2[C@H]2CCCCN(C(=O)/C=C/CN(C)C)C2)ccn1", "tested on": "Trypanosoma brucei", "system": "STIB795, mouse acute HAT model", "setting": "oral, 25 mg/kg once daily for 4 days, day 14", "scale": "relative to: mice", "quantity": "survival", "value": "83.3%"}
{"Compound": "COc1ccccc1C(C[N+](=O)[O-])c1c(-c2ccccc2)[nH]c2ccccc12 (stereo not drawn)", "tested on": "CNR1 (Homo sapiens, UniProt P21554, F191A)", "test": "G protein activation, agonist, BRET", "quantity": "EC50", "value": "1140 nM"}
